# Measured values collected from several papers.
# Every numbered part comes from another study and shows a few of its results, in no order. Positions count from the first letter of the parent shown.

# Series 1
# Target: Interferon regulatory factor 5, full length, phosphomimetic (IRF5, Homo sapiens, UniProt Q13568-2, residues 1-514, S451D/S453D/S456D/S462D)
# Technique: protein-binding microarray
# Molecule type: double-stranded DNA, one strand shown
# Matrix: in vitro
# Tested at: 940 nM top
# Setting: 60-bp whole probe
# Together with: salmon DNA 0.4 mg/ml
# Relative to: random background probes
# Reading: higher = stronger binding
# Constant ends, left off below: GCCTAGCAC … GTCTTGATTCGCTTGACGCTGCTG
Sequence,fitted relative affinity [z-score]
TAAGGTTTCGGGACTGGGTTAGTGCTA,5.32
TTAGATTCCAGTTTCGGTTAGTGCTAG,9.44
TTAGGTATGGGACTGGGTTAGTGCTAG,-0.177
GACGATTACAGTATCGAGACGTGCTAG,1.78
GACGGTTTGGACACTGGGGACGTGCTA,-0.322
CTTACTTTATGTAGGAAGTCGTGCTAG,-0.362
TTACATCTCAGTATCGATTAGTGCTAG,5.65
GTCGGTATCGGGTTTCGGGACGTGCTA,6.85
GACGTTTTCGGGTTTCGGGACGTGCTA,3.41
GACGGTTTCCTTCTCCTGGCGTGCTAG,2.28
TTAGATATCGGGTCTGGATTAGTGCTA,-0.163
GACGGTTTCGACAATCGGGACGTGCTA,6.71
GACGGAATGGGTCTCGGGACGTGCTAG,-0.0648
TTAGGTTTCGACTTTCGGTTCGTGCTA,9.52
TAAGATCTCAGACTGGATTAGTGCTAG,-0.569
GACAGACTGCTTTTCCTGACGTGCTAG,0.0391
TTAGATCTCACACTGGATTAGTGCTAG,0.103
GACGATTTCAATTTCGAGACGTGCTAG,0.615
CAATTCCTGAAATCTCTTTCCGTGCTA,0.794

# Series 2
# Target: Histone acetyltransferase KAT6A, winged helix 1, GST fusion (KAT6A, Homo sapiens, UniProt Q92794, residues 1-85)
# Technique: protein binding microarray
# Molecule type: double-stranded DNA, one strand shown
# Matrix: in vitro
# Tested at: not given
# Setting: 8-mer, flanks averaged, mean of 2 arrays, mostly near background
# Relative to: not given
# Reading: higher = stronger binding
# Target sequence (chain): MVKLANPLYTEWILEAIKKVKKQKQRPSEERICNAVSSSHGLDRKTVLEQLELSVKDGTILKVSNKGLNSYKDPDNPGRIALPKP
Sequence,E-score
ATGTCCTG,-0.0167
CGAGGGAG,0.0289
ACCATTCC,0.0272
ACTCACAA,-0.272
CGGGAATC,0.22
CCCCGCGG,0.438
ACAGGATA,-0.185
GTATTATA,0.0474
AGTCCGAC,0.0338
AAGTGGGA,-0.176
GACTAGCA,-0.0645
AGGGAAGG,-0.171
AATGGAAA,-0.0421
ATCTAGTA,-0.156
CCTACTCG,0.059
GAGAATAA,-0.238
GGCCATAA,-0.17
GACACACA,-0.124
GGATAACC,0.0447
CCCGCACG,0.329

# Series 3
# Target: RING finger protein unkempt homolog, zinc fingers 1-6, GST-SBP tag (UNK, Homo sapiens, UniProt Q9C0B0, residues 30-357)
# UniProt Q9C0B0, sequence (30-357, looked up): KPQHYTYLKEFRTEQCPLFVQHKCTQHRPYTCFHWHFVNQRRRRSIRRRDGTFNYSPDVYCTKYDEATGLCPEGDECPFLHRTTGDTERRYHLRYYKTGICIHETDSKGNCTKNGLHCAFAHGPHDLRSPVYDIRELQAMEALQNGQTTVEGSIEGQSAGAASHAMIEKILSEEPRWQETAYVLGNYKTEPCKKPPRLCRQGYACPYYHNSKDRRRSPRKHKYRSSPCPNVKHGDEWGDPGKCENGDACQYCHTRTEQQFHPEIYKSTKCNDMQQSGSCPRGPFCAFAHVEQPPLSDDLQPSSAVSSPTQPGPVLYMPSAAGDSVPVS
# Technique: RNA Bind-n-Seq
# Molecule type: RNA
# Matrix: in vitro
# Tested at: not given
# Setting: RNA with constant flanks, human-mouse chimeric sites, ends assumed
# Relative to: input RNA pool
# Reading: higher = stronger binding
# Constant ends, left off below: GGGAGUUCUACAGUCCGACGAUC … CAACAGAGGAUUGAGCAUCA
Sequence,bound/input enrichment [ratio]
AUCAAAUAUUUUGGGGACAUCAUUAGUGUGGGACAGAGAUUGUUGCAAGGAGCUCGGAUCUUAGGGAUUCCAGUUAUCAUAACGGAACAAUACCCCAAAGGACUUGGCAGCACCGUUCAA,0.268
GCUCCUCCCCGCUCUGCAGCCUGGGGACUUUUGGCAAGGACCAGAAUCCAGCUUUCUUUUAAAACUCUAUAUUUUUUUGUAUCCCGUGACAUUUCAUUUUUUUUAAAUAGUGUAUUUUUU,18.8
CCCCAAUUACCAUCUGUGGUCUGGAACUGCACUCUCUUUUUUAAAAAAUAUGCAUAUAUUUUAGGGCUGUAGAUUUAUUUUCCUGGUUUUGUUUUUCAUUGCUGACUUUUGAGCACAGAA,1.11
UUUGUUUUUAUGCUAAGCACACGUGCUGGUGGUCUGGGCAUCAAUCUUGCAACUGCUGAUGUAGUCAUUUUAUAUGAUUCUGAUUGGAAUCCGCAAGUUGAUCUUCAGGCUAUGGACCGU,0.221
CUUAAUGUUAAUAUUUUUGAAUAAAUGUAAAACCAUGGUCUGCUUUUGGUACAACACGCAUUAAUAAAAGGUUAAGUUUUGUUUUCCACUGAAGUACUAUUUAACAUACAUCUCAGAAAC,0.195
CUCGGCACCGGCACGCUUUACAUCGCUGAGAGCCGCCUGUCUUGGUUAGAUGGUUCGGGAUUAGGAUUCUCACUGGAAUACCCCACCAUUAGUUUACAUGCGGUGUCCAGGGAUCCAAAC,0.391
UGGCGCCUGCGCUCCCCACUCGUGUUUGUAUUUUUAUUUUUAUAAGAUACAUGUAUUUACAAUUGAGCUUUUGUUACAUAAUGCUGAAAUGCUACUGGAGAUUAUGAAAAAAUGUUAAAU,0.205
AUAAAGGCUAUGUUGAGUGGUCCAGGUCAGUUUGCUGAGAAUGAAACCAACGAGGUCAAUUUUAGAGAGAUCCCCUCACAUGUGCUAUCGAAAGUAUGCAUGUAUUUUACGUACAAGGUC,0.182

# Series 4
# Target: FOSL2, bZIP domain (human)
# Technique: DHFR protein complementation
# Matrix: yeast
# Setting: single substitutions, most at no-binding floor
# Relative to: wild-type JUN-FOS pair
# Reading: higher = stronger binding
# Parent: JUN, bZIP domain (human); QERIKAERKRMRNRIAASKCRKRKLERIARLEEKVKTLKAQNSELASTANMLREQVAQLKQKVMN; partner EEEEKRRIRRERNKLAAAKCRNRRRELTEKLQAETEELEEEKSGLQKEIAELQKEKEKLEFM
Variant,binding fitness [natural log]
I28R,-0.0582
A49S,-0.35
L52E,-1.09
T48C,-0.0349
A49W,-0.486
A40P,-1.15
E32T,-0.0126
R30N,0.0299
Q55G,-0.466
E54W,-0.184
K36I,0.0425
K39L,-0.399
Q41N,-0.153
Q41F,-0.708
L38C,-0.65
A29I,0.0832
Q55K,-0.00452

# Repeated from above (series 3):
Sequence,bound/input enrichment [ratio]
AUCAAAUAUUUUGGGGACAUCAUUAGUGUGGGACAGAGAUUGUUGCAAGGAGCUCGGAUCUUAGGGAUUCCAGUUAUCAUAACGGAACAAUACCCCAAAGGACUUGGCAGCACCGUUCAA,0.268
GCUCCUCCCCGCUCUGCAGCCUGGGGACUUUUGGCAAGGACCAGAAUCCAGCUUUCUUUUAAAACUCUAUAUUUUUUUGUAUCCCGUGACAUUUCAUUUUUUUUAAAUAGUGUAUUUUUU,18.8
CCCCAAUUACCAUCUGUGGUCUGGAACUGCACUCUCUUUUUUAAAAAAUAUGCAUAUAUUUUAGGGCUGUAGAUUUAUUUUCCUGGUUUUGUUUUUCAUUGCUGACUUUUGAGCACAGAA,1.11
UUUGUUUUUAUGCUAAGCACACGUGCUGGUGGUCUGGGCAUCAAUCUUGCAACUGCUGAUGUAGUCAUUUUAUAUGAUUCUGAUUGGAAUCCGCAAGUUGAUCUUCAGGCUAUGGACCGU,0.221
CUUAAUGUUAAUAUUUUUGAAUAAAUGUAAAACCAUGGUCUGCUUUUGGUACAACACGCAUUAAUAAAAGGUUAAGUUUUGUUUUCCACUGAAGUACUAUUUAACAUACAUCUCAGAAAC,0.195
CUCGGCACCGGCACGCUUUACAUCGCUGAGAGCCGCCUGUCUUGGUUAGAUGGUUCGGGAUUAGGAUUCUCACUGGAAUACCCCACCAUUAGUUUACAUGCGGUGUCCAGGGAUCCAAAC,0.391
UGGCGCCUGCGCUCCCCACUCGUGUUUGUAUUUUUAUUUUUAUAAGAUACAUGUAUUUACAAUUGAGCUUUUGUUACAUAAUGCUGAAAUGCUACUGGAGAUUAUGAAAAAAUGUUAAAU,0.205
AUAAAGGCUAUGUUGAGUGGUCCAGGUCAGUUUGCUGAGAAUGAAACCAACGAGGUCAAUUUUAGAGAGAUCCCCUCACAUGUGCUAUCGAAAGUAUGCAUGUAUUUUACGUACAAGGUC,0.182
